Measured values of several laboratories.
Each numbered part is a random draw from the data of one study; scales do not carry over between parts. Substitutions count along the parent as printed.

Sample 1
Target: ATF5, bZIP domain (human)
Method: DHFR protein complementation
Sample: yeast
Notes: single substitutions, most at no-binding floor
Reference: wild-type JUN-FOS pair
Reading: higher = stronger binding
Starting sequence: JUN, bZIP domain (human); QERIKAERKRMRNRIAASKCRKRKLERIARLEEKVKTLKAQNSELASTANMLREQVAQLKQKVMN; partner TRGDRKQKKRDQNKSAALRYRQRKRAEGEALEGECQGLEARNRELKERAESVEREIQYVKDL
Change | binding fitness
E54R | -1.35 natural log
A46Y | -1.46 natural log
E44L | -1.45 natural log
N42M | -1.37 natural log
Q41Y | -1.52 natural log
L31I | -1.44 natural log
S43L | -1.44 natural log
Q41A | -1.41 natural log
A57G | -1.46 natural log
T37S | -1.5 natural log
E44S | -1.48 natural log
V56G | -1.46 natural log
A46H | -1.39 natural log
S47M | -1.49 natural log
K39G | -1.47 natural log
T48S | -1.36 natural log
T37W | -1.44 natural log
L31M | -1.65 natural log
V35C | -1.4 natural log
A49E | -1.27 natural log
T48H | -1.54 natural log
A46D | -1.49 natural log
L52D | -1.59 natural log
A46P | -1.53 natural log
V35S | -1.52 natural log

Sample 2
Target: Histone acetyltransferase KAT6A, winged helix 1, GST fusion (KAT6A, Homo sapiens, UniProt Q92794, residues 1-85)
Method: protein binding microarray
Molecule type: double-stranded DNA, one strand shown
Sample: in vitro
Tested at: not given
Notes: 8-mer, flanks averaged, mean of 2 arrays, mostly near background
Reference: not given
Reading: higher = stronger binding
Construct (chain): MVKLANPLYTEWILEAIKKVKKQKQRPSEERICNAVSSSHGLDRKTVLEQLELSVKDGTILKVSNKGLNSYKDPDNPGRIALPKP
Oligonucleotide | E-score
CGGTGTAA | 0.0939
ATAGAACC | -0.00558
ATGGCACG | 0.224
CTAAGATC | -0.018
ATCGGTCA | 0.0997
CGATACTA | 0.0837
ACTACAGC | -0.0241
TCCTCCAA | -0.198
CGTCCAAG | 0.113
TGCCGACA | 0.245
CCCCTTGA | -0.0866
AGCCGACA | 0.115
ATATCACG | 0.0135
ACAGTCAA | -0.209
CGCTAGAC | 0.0788
TCTAATAA | -0.0657
TCGTGCAA | -0.138
AGATCGTC | -0.221
ACTTAAGA | 0.0236
AAAGACGT | -0.153
ATCCACTA | -0.24

Sample 3
Target: Max-binding protein MNT, bHLH-zipper, MAX partner unstated (MNT, Homo sapiens, UniProt Q99583, residues 220-300)
Method: protein-binding microarray
Molecule type: double-stranded DNA, one strand shown
Sample: in vitro
Tested at: not given
Notes: k-mer, scored over probes, only values ≥0.25
Reading: higher = stronger binding
Construct (chain): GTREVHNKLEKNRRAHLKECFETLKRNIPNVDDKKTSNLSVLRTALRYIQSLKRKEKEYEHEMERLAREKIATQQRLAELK
Oligonucleotide | E-score
ATGCATGC | 0.38
CGTGCACC | 0.378
CGTGTTAA | 0.325
ACCACGAT | 0.278
TGAGCACA | 0.269
ACATGCGA | 0.393
CCCGCCTC | 0.27
GCTCCCCA | 0.32
AACGCGTG | 0.444
CGTGGGGA | 0.366
AGTCACGA | 0.334
GCACGAGA | 0.381
CCACGCGC | 0.433
CATGCGGG | 0.412
CATGGGGA | 0.366
CTCATGCA | 0.297
ACGAGGAT | 0.255
GTGTCAAA | 0.255
CGTGTGCC | 0.33
CGCACCCA | 0.301
ACGCGGAA | 0.285
GGCGGGAC | 0.254
ACAGGGGC | 0.3
GTGGACAC | 0.262
CGTGTCTA | 0.358

Sample 4
Target: Ras GTPase-activating protein-binding protein 1, C-terminal RGG region (G3BP1, Homo sapiens, UniProt Q13283)
Chain of UniProt Q13283 (whole entry, looked up): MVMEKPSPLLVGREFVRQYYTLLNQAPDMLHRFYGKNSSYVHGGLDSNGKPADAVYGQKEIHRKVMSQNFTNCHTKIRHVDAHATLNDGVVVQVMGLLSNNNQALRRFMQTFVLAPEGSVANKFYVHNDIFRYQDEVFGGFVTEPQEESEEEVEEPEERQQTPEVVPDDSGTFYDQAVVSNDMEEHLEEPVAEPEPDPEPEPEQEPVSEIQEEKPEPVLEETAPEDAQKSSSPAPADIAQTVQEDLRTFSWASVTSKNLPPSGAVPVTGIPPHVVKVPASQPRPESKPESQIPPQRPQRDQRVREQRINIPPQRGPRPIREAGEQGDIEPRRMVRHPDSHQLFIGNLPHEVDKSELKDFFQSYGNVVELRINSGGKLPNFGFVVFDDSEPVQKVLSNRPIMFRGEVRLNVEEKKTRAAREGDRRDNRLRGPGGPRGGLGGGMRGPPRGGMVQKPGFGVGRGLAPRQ
Method: RNA Bind-n-Seq
Molecule type: RNA
Sample: in vitro
Tested at: 1 µM
Notes: whole 134-nt RNA, ends assumed
Together with: 150 mM KCl
Reference: input library
Reading: higher = stronger binding
Shared flanks, not repeated: GGGAGUUCUACAGUCCGACGAUC … UGGAAUUCUCGGGUGUCAAGG
Oligonucleotide | log2 enrichment
CCUGUGCUACACAUCGUAUGUACCGAAUCGGGGAGGGGAAAAAAAGGGGAAAAAAAGGGGAAAGUAUUAUGUUACGCCGUUCGGAUCUGC | -0.0976
UGGGAGGUGGAUUUUCUUUAUUUUUUUAGCUCAUUUCCAGGGGUGGGAAUUUUUUUUUAAUAUGUGUCAUGAAUAAAGUUGUUUUUGAAA | 3.13
AAUUCUCAUUUCUCGACAUAAAGCCUUGUCUAAAGUGAGAUGUUUUCCAGGUCAUACAUAGGUUUCUCCCUGGGGUAAUUGGAAGUUCUU | -1.95
ACCAUGCAGGUGGGCAUCUUUGGGAAGUGGGGCAAGGGGGGGAUAGGGAGGGGGGUAACGCUUUGGGAACAGGUGGUCCCAGGUCGUUUC | 2.34
CAAGUCCUGUGCUACACAUCGUAUGUACCGAAUCGGAAAGGAAAAAAAGGUUUGGAAAGUAUUAUGUUACGCCGUUCGGAUCUGCACUUC | -2.1
AAGUCCUGUGCUACACAUCGUAUGUACCGAAUCAAACCCAAAUUUUUAAAUUUAAAAAAGUAUUAUGUUACGCCGUUCGGAUCUGCACUU | -1.02
CAAGUCCUGUGCUACACAUCGUAUGUACCGAAUCGGGCCCGGCCCGGGGCCCGGGAAAGUAUUAUGUUACGCCGUUCGGAUCUGCACUUC | -1.67
GCAGGAAGUAAAAACAAAUGGAAAUGCUUCGGAUAGUGGCAGGGGUGGGGGUUGCUAAGGAAAGGGUGGGAUGGGAGUGGGUAAAGAGUA | 1.91
UGGCCCUGGUGGCAUGCGGGGAGGAAGAGGUGGCCUCAUGGAUCGUGGUGGUCCCGGUGGAAUGUUCAGAGGUGCCCGUGGUGGAGACAG | 3.33

Sample 5
Target: Sal-like protein 4, full length isoform B (SALL4, Homo sapiens, UniProt Q9UJQ4-2, residues 1-616)
Method: universal PBM
Molecule type: double-stranded DNA, one strand shown
Sample: in vitro
Tested at: not given
Notes: 8-mer, flanks averaged, mean of replicates
Reading: higher = stronger binding
Oligonucleotide | E-score
CTACCTCC | -0.073
CAACTTTA | 0.202
CAAATATC | 0.237
ATCCCCCG | -0.0606
CTATCTTA | 0.136
AGTAGCAG | 0.0526
CTCTTTCC | -0.288
CTGGACCA | -0.213
AAAATGGA | 0.213
ACGATCTA | 0.0945
GCTTCTTA | 0.0984
ATGTAGAA | 0.165
AATCTGGC | -0.118
AACTGAAC | -0.104
TACTACTA | 0.235
CAAGTACC | 0.0353
AGGGGAGA | -0.159
AATTGCAA | 0.301
ACCGAGCG | -0.198

Sample 6
Target: RING finger protein unkempt homolog, zinc fingers 1-6, GST-SBP tag (UNK, Homo sapiens, UniProt Q9C0B0, residues 30-357)
Chain of UniProt Q9C0B0 (30-357, looked up): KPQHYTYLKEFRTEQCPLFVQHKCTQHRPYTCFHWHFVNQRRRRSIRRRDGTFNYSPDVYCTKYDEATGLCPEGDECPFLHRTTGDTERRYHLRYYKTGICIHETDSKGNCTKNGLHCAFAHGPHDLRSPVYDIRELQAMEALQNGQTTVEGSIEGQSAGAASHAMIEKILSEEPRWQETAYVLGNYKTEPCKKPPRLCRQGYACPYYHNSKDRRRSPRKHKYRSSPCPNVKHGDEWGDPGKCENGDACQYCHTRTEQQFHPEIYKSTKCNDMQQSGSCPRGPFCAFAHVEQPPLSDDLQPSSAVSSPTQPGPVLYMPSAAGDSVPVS
Method: RNA Bind-n-Seq
Molecule type: RNA
Sample: in vitro
Tested at: not given
Notes: RNA with constant flanks, human and mouse sites, ends assumed
Reference: input RNA pool
Reading: higher = stronger binding
Shared flanks, not repeated: GGGAGUUCUACAGUCCGACGAUC … CAACAGAGGAUUGAGCAUCA
Oligonucleotide | bound/input enrichment [ratio]
GCUGUGCUGGGGAACCAGAUUUUUAUUAUGGGGGGUGAUACAGAAUUCUCUGCCUGCUCUGCUUAUAAAUUCAACAGUGAGACUUACCAGUGGACCAAGGUGGGAGAUGUGACAGCAAAG | 0.683
CAAGGAGCCAGUGCUGGUCGUGUCCUUCGUCGUCGGGGGCCUCGCUGUAAUUCUGCCCCCAUUGAGCCCCUACUUCAAGUACUCCGUCAUGAUCAACAAGGCCACGCCCUACAACUACCC | 0.26
GCUAUGAAAAGGGGAGAGCCUGCCAUCUACAGGCCAUUAGAUCCAAAGCCAUUCCCAAAUUAUAGAGCUAAUUACAACUUUCGGGGCAUGUACAAUCAGAGGUAUCAUUGCCCAGUGCCU | 1.23
AAUGACGUGGAGCUUUAUGGACAAUACCUUGAGAGGUUAAAACAGUUCGUGUCACAGGAACUGGUAAAUUUGUAAACUACUCUGUAAAUUUGCAGACUGGGUUUUCUUUUCUUGCUGAAC | 0.153
AAAGAGAUGAUUAAGAAGGCAAAAAAACUGAUUGAGACCACAGCCAACAUGAACUCCAGUUAUGUUAAAUUUUUAAAGCAGGCAACAGAUAAUUCAGAAAUCAGUUCUGCUACAAAAUUA | 0.356
GUUUUCCAUCUUUAUCAAUGCAUUCGUGUUGGUCUUGAUGUAUACUACCUGUUCCUAGUGUUAUUUUUACACGUCAUCUCACAGUAAUAAUAUCAGCAAUUCUUGCUGCAUUGAACAUAU | 0.265
AUUUUUGACCUGUACAGAAGAAGAUGGGGUGCUGGUUUACCACCAUGCCCAGGAUGUCAUUUUAGAAGUCAUUUACACUGACCCUGUGGAUCUUUCUGUGGGCACCGUGGCAGAAAUCAC | 0.283
AUGGACUUUGAAUUUGCUGCCUGGCAGAUGCUCUACCUGUUCACAUCCCCACAGAGAGUUUACAGAAAUUUUCAUUAUCGAAAACAGACGAAGGACCAGUGGGCCAGAGAUGACCCUGCU | 0.314

Some of these lines once more (sample 3):
Oligonucleotide | E-score
CGTGTTAA | 0.325
ACCACGAT | 0.278
TGAGCACA | 0.269
ACATGCGA | 0.393
CCCGCCTC | 0.27
GCTCCCCA | 0.32
AACGCGTG | 0.444
CGTGGGGA | 0.366
AGTCACGA | 0.334
GCACGAGA | 0.381
CCACGCGC | 0.433
CATGCGGG | 0.412
CATGGGGA | 0.366
CTCATGCA | 0.297
